# Assay results collected from several papers.
# Lines come from different studies, so protocols differ. ± marks the error that the study gave.
Compound,tested on,assay,system,setting,how to read,endpoint,result
CSCC[C@H](NC(=O)CNC(=O)[C@H](CCCCN)NC(=O)[C@H](CC(C)C)NC(=O)[C@@H]1CCCN1C(=O)[C@H](CO)NC(=O)[C@H](Cc1c[nH]cn1)NC(=O)[C@H](Cc1c[nH]c2ccccc12)NC(=O)[C@H](CCCNC(=N)N)NC(=O)[C@H](CC(C)C)NC(=O)[C@H](CCCNC(=N)N)NC(=O)[C@H](Cc1c[nH]c2ccccc12)NC(=O)[C@H](CS)NC(=O)CCCCCNC(=O)CN1CCN(CC(=O)O)CCN(CC(=O)O)CCN(CC(=O)O)CC1)C(=O)O [copper-64 labelled],,PET imaging,"BALB/c nude mice, tumor","intravenous, dose not given, 18 h, Huh-7 tumour-bearing",,tissue uptake,3.45 ± 0.41 %ID/g
CS(C)(=O)=Nc1ccc(-c2ccc(-c3nc4cc(O[C@@H]5CO[C@H]6[C@@H]5OC[C@H]6O)[nH]c4cc3F)cc2)cc1,"PRKCG (Homo sapiens, UniProt P05129)","enzyme activity, inhibitor",,10 µM,,inhibition,1%
COc1ccccc1-c1n[nH]c2nc(NC3CCN(C(=O)Cc4ccc(F)cc4F)CC3)ncc12,,"bead binding, competition bead pull-down, refers to: LINJ.30.3390",Leishmania donovani axenic amastigote extract,10 µM,baseline: vehicle,relative abundance,1.04
CC(C)(C)C(=O)OCOP(=O)(OCOC(=O)C(C)(C)C)C1CCCN(O)C1=O (stereo not drawn),K562,,,,,GI50,393 nM
CCCC[C@H]1C(=O)N(C)[C@@H](CCCC)C(=O)N[C@@H](CCCNC(=O)CN2CCN(CC(=O)O)CCN(CC(=O)O)CCN(CC(=O)O)CC2)C(=O)N[C@H](C(=O)NCC(N)=O)CSCC(=O)N[C@@H](Cc2ccc(O)cc2)C(=O)N(C)[C@@H](C)C(=O)N[C@@H](CC(N)=O)C(=O)N2CCC[C@H]2C(=O)N[C@@H](Cc2c[nH]cn2)C(=O)N[C@@H](CC(C)C)C(=O)N(C)CC(=O)N[C@@H](Cc2c[nH]c3ccccc23)C(=O)N[C@@H](CO)C(=O)N[C@@H](Cc2c[nH]c3ccccc23)C(=O)N1C [gallium-68 labelled],,,"NOD/SCID mice, CHO-hPD-L1 xenograft, pancreas","60 min, added: blocking agent 50 µg co-injected",,tissue uptake,3.24 ± 0.38 %ID/g
O=C1NC2(CC2)COc2ncc(F)cc2[C@H]2COCCN2c2ccn3ncc1c3n2,,,"Sprague-Dawley rat, female, adrenals","oral, 5 mg/kg/day, 4 weeks, end of treatment",,organ-to-body weight ratio,0.021 ± 0.003%
CC[C@H](C)[C@H](NC(=O)[C@H](CCCNC(=N)N)NC(=O)[C@H](CCCCN)NC(=O)[C@H](Cc1ccc(O)cc1)NC(=O)[C@H](CC(=O)O)NC(=O)[C@H](C)NC(=O)CNC(=O)CCOCCOCCOCCNC(=O)CN1CCN(CC(=O)O)CCN(CC(=O)O)CCN(CC(=O)O)CC1)C(=O)N[C@H](C(=O)N[C@H](C(=O)N[C@@H](CCCCN)C(=O)N[C@H](C(=O)N[C@@H](CC(N)=O)C(N)=O)C(C)C)C(C)C)[C@@H](C)O [copper-64 labelled],,ex vivo gamma counting,"C57BL/6J male mice, B16-F10 tumour, heart","intravenous, 1.85 MBq, 20 min",,tissue uptake,1.16 ± 0.136 %ID/g
CN1Cc2cc(Cl)ccc2-n2c(nnc2C2CCN(c3cccc([18F])n3)CC2)C1,,,"C57BL/6 mouse male, heart","intravenous, dose not given, 30 min, added: blocking agent 10 mg/kg",,tissue uptake,5.29 ± 1.52 %ID/g
CC[C@H](C)[C@H](NC(=O)[C@H](CCCNC(=N)N)NC(=O)[C@H](CCCCN)NC(=O)[C@H](Cc1ccc(O)cc1)NC(=O)[C@H](CC(=O)O)NC(=O)[C@H](C)NC(=O)CNC(=O)CCOCCOCCOCCNC(=O)CN1CCN(CC(=O)O)CCN(CC(=O)O)CCN(CC(=O)O)CC1)C(=O)N[C@H](C(=O)N[C@@H](CC(C)C)C(=O)N[C@@H](CCCCN)C(=O)N[C@H](C(=O)N[C@@H](CC(N)=O)C(N)=O)C(C)C)[C@@H](C)O [copper-64 labelled],,ex vivo gamma counting,"C57BL/6J male mice, B16-F10 tumour, testis","intravenous, 1.85 MBq, 5 min",,tissue uptake,1.21 ± 0.383 %ID/g
CC(C)C[C@@H](NC(=O)[C@@H](CCCNC(=N)N)NC(=O)[C@@H](Cc1c[nH]cn1)NC(=O)[C@@H](Cc1c[nH]c2ccccc12)NC(=O)[C@@H](Cc1c[nH]cn1)NC(=O)[C@@H](Cc1ccccc1)NC(=O)[C@H](NC(=O)[C@@H](Cc1ccc(O)cc1)NC(=O)CNC(=O)CNC(=O)CCOCCOCCOCCNC(=O)CN1CCN(CC(=O)O)CCN(CC(=O)O)CC1)[C@H](C)O)C(=O)N[C@H](CC(N)=O)C(=O)N1CCC[C@@H]1C(=O)O [gallium-68 labelled],,gamma counting,"C57BL/6 mice, male, heart","intravenous, 1.85 MBq, 30 min",,tissue uptake,2.5 ± 0.32 %ID/g
C[C@H](O)[C@@H](NC(=O)[C@H]1CCCN1C(=O)[C@@H](CCCCN)NC(=O)[C@@H](CO)NC(=O)[C@@H](Cc1ccc(O)cc1)NC(=O)[C@@H](CC(N)=O)NC(=O)CCOCCOCCOCCNC(=O)CN1CCN(CC(=O)O)CCN(CC(=O)O)CCN(CC(=O)O)CC1)C(=O)N[C@H](CC(=O)O)C(=O)N[C@H](CCCNC(=N)N)C(=O)N[C@H](CCC(N)=O)C(=O)N[C@H](Cc1ccc(O)cc1)C(=O)N[C@H](Cc1c[nH]cn1)C(=O)N[C@H](Cc1ccccc1)C(N)=O [gallium-68 labelled],,,"BALB/c nude mice U-87 MG tumour, kidney","intravenous, 1.85 MBq, 0.08333 h, radiolabelled",,tissue uptake,19.2 ± 1.95 %ID/g
CC[C@H](C)[C@H](NC(=O)[C@H](CCCCN)NC(=O)CNC(=O)[C@H](CC(C)C)NC(=O)[C@H](Cc1ccccc1)NC(=O)[C@H](CCCCN)NC(=O)[C@H](CO)NC(=O)[C@H](Cc1ccccc1)NC(=O)[C@H](Cc1c[nH]c2ccccc12)NC(=O)[C@H](CCC(N)=O)NC(=O)[C@@H](NC(=O)[C@H](Cc1ccccc1)NC(=O)CCCCCNC(=O)CN1CCN(CC(=O)O)CCN(CC(=O)O)CCN(CC(=O)O)CC1)C(C)C)C(=O)N[C@@H](CCC(=O)O)C(=O)N1CCC[C@H]1C(=O)N[C@@H](CC(=O)O)C(=O)N[C@H](C(=O)N[C@@H](CO)C(=O)N[C@@H](CCC(N)=O)C(=O)N[C@H](C(=O)N[C@@H](CCC(N)=O)C(=O)N[C@@H](CC(=O)O)C(=O)N1CCC[C@H]1C(=O)N[C@@H](CC(N)=O)C(=O)N[C@@H](CC(=O)O)C(=O)N[C@@H](CCC(N)=O)C(=O)N[C@@H](Cc1ccc(O)cc1)C(=O)N[C@@H](CCC(=O)O)C(=O)N1CCC[C@H]1C(=O)N[C@@H](Cc1ccccc1)C(=O)O)C(C)C)C(C)C [copper-64 labelled],,,"BALB/c mice, male, CT26 tumour-bearing, pancreas","2 h, vehicle-treated",,tissue uptake,1.44 ± 1.3 %ID/g

# Repeated from above:
Compound,tested on,assay,system,setting,how to read,endpoint,result
CN1Cc2cc(Cl)ccc2-n2c(nnc2C2CCN(c3cccc([18F])n3)CC2)C1,,,"C57BL/6 mouse male, heart","intravenous, dose not given, 30 min, added: blocking agent 10 mg/kg",,tissue uptake,5.29 ± 1.52 %ID/g
